Experimental data gathered from unrelated publications.
A part holds a random share of what one study measured. Values joined by “and” are separate records of one study, mostly repeats; a detail may differ.
Chain of UniProt P00519 (whole entry, unmodified, looked up): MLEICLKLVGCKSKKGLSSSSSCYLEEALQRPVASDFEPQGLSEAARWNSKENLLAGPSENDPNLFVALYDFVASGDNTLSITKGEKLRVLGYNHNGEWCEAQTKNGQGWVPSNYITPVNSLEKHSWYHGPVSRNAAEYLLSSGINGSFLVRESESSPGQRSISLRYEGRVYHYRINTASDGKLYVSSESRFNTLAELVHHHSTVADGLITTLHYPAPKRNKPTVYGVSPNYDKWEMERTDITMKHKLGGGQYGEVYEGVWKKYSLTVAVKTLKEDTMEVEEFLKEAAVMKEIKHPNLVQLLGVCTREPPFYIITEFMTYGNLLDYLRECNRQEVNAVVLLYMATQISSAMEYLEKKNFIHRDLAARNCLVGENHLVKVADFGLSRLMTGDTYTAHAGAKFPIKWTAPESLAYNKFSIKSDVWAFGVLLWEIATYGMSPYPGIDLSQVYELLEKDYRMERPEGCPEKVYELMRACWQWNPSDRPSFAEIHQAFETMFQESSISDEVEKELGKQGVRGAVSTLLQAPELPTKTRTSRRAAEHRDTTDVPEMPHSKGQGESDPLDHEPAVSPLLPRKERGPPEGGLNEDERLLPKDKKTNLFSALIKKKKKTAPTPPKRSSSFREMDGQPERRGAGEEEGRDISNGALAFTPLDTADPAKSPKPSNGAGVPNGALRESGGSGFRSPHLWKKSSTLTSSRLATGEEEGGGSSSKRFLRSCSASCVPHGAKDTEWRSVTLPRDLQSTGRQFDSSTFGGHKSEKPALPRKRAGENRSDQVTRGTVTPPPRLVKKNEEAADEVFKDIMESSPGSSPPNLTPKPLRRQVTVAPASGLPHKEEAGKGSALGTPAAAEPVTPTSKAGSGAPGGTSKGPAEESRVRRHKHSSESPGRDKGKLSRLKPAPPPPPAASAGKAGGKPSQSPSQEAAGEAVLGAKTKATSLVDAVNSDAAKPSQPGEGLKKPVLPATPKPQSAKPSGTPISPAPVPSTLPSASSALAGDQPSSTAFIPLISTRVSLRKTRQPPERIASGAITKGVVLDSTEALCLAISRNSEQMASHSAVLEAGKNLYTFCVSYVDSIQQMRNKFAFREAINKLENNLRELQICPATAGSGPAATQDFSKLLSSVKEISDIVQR
Chain of UniProt P42336 (whole entry, unmodified, looked up): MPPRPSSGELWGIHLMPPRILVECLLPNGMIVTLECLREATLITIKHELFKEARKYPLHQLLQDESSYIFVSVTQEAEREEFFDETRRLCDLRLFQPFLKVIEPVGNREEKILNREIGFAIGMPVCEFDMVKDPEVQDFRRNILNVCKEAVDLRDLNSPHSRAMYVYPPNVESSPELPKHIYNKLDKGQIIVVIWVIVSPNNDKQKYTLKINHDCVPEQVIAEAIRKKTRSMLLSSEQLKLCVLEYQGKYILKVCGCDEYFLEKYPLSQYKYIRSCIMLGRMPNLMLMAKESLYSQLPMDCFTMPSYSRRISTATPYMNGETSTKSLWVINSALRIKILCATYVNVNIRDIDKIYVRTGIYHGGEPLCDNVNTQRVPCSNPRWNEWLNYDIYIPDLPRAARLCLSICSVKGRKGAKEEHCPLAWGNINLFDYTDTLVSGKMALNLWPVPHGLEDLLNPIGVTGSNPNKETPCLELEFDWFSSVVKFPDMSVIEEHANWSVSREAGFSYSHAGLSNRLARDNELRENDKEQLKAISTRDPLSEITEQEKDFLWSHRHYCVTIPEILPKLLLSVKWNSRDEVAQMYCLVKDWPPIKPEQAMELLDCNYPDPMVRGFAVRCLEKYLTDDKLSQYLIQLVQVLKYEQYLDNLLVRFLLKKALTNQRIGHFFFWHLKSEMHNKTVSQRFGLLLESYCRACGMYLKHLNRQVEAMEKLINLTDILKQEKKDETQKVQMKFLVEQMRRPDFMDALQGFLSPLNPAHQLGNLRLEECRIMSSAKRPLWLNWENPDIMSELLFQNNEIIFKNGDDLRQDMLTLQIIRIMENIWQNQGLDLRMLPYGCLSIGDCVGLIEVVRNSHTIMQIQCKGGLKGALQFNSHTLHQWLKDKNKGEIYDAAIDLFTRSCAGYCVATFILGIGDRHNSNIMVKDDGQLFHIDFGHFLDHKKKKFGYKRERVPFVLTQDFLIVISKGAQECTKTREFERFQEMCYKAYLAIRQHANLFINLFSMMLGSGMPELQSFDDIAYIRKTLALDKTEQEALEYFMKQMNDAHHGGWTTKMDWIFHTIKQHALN
Chain of UniProt O94806 (whole entry, looked up): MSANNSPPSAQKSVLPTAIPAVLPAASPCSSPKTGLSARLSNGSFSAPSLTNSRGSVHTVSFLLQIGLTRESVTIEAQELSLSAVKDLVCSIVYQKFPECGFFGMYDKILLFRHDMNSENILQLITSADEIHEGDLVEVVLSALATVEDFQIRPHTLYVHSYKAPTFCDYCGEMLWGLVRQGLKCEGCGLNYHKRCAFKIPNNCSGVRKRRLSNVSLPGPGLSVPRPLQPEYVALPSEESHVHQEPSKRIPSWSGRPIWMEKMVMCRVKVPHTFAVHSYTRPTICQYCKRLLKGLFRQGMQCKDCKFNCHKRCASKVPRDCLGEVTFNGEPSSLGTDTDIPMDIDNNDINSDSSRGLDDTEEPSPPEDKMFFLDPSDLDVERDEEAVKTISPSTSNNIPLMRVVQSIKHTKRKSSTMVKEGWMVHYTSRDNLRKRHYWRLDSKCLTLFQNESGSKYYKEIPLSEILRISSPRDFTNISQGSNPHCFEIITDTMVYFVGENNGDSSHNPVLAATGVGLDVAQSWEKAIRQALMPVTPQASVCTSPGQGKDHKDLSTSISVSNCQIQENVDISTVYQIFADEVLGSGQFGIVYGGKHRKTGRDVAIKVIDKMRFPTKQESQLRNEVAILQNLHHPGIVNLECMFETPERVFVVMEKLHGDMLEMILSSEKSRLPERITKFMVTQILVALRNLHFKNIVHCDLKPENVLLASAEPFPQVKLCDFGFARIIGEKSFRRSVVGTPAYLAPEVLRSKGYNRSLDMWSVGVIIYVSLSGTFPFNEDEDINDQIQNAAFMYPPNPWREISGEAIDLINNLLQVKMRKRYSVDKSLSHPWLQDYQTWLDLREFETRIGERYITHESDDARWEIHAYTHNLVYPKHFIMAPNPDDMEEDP
Chain of UniProt P07949 (whole entry, unmodified, looked up): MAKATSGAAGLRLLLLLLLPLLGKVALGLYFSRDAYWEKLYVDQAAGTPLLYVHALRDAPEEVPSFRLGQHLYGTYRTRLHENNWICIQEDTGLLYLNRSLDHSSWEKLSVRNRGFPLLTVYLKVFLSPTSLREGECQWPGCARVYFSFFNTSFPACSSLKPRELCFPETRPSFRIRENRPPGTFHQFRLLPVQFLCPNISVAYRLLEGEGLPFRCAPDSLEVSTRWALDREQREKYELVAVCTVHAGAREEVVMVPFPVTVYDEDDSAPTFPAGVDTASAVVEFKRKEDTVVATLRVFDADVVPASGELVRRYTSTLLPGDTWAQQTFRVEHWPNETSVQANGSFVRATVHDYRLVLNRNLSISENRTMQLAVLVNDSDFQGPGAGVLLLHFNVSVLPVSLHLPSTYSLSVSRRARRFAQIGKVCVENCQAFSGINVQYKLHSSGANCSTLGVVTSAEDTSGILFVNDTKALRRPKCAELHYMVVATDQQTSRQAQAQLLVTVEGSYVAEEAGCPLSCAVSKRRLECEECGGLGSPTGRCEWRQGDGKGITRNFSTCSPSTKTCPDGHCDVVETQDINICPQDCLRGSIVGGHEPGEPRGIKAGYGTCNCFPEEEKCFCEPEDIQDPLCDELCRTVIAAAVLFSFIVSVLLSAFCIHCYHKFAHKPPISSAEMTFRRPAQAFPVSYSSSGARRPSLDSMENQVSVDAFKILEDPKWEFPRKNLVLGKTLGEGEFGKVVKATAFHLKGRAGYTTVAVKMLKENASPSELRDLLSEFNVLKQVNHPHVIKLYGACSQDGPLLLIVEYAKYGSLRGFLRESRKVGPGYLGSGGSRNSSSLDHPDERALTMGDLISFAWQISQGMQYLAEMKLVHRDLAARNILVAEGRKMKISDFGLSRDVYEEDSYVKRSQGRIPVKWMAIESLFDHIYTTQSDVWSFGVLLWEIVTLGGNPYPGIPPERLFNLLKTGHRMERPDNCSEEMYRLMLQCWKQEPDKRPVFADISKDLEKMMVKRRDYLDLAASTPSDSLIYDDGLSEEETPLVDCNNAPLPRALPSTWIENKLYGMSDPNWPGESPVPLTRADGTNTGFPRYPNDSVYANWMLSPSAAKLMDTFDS
Chain of UniProt Q16816 (whole entry, looked up): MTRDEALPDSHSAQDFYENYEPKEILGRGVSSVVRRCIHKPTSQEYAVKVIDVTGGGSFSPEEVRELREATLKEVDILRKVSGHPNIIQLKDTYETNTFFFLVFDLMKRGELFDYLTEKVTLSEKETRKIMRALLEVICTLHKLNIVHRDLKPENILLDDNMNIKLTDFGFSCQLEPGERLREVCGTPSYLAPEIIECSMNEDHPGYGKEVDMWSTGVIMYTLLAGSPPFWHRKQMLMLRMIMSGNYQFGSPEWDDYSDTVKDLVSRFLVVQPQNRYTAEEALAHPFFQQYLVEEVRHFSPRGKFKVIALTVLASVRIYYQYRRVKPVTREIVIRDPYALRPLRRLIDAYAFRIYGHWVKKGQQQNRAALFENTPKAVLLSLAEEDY

Series 1 — read-out: enzyme activity; mode: inhibitor; concentration: 0.5 µM; baseline: control
Target: Serine/threonine-protein kinase VRK1 (VRK1, Homo sapiens, UniProt Q99986)
Target sequence (Q99986 1-396): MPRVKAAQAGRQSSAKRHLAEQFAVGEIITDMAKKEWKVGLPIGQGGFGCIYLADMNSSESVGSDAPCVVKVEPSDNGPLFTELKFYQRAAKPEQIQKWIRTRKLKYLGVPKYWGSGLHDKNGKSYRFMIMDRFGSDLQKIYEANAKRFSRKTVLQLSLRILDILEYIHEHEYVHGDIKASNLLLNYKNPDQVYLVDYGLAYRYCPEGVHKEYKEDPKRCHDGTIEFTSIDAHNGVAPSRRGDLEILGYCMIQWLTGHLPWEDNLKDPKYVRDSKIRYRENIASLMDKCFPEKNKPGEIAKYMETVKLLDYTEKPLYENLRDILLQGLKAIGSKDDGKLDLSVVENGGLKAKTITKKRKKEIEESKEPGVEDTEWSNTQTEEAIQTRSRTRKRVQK
SMILES	remaining activity
CCN(CC)C(=O)c1ccc(Nc2nc(OCC3CCCCC3)c3[nH]cnc3n2)cc1	93.1%
O=C1C(Cl)=C(N2C(=O)CCC2=O)C(=O)c2ccccc21	92.4%
Cc1nc2cc3nc(-c4cccs4)cnc3cc2n1C	95.6%
CCOc1nc(NC(=O)Cc2cc(OC)ccc2OC)cc(N)c1C#N	92.6%
Nc1cccc(-c2cc3c(Oc4cccc(O)c4)ncnc3[nH]2)c1	81.6%
Cn1nc2c3c(cccc31)C(=O)c1ccccc1-2	84.1%
O=C(NC(NC(=S)Nc1ccc(F)c([N+](=O)[O-])c1)C(Cl)(Cl)Cl)C(c1ccccc1)c1ccccc1 (stereo not drawn)	96.7%
N#C/C(=C\c1ccc(O)c(O)c1)C(=O)NCc1ccccc1	97%
COc1cc2ncnc(Nc3cccc(Cl)c3)c2cc1OC	105%
C[C@@H]1CCN(C(=O)CC#N)C[C@@H]1N(C)c1ncnc2[nH]ccc12	100%
O=C1c2ccccc2-c2n[nH]c3cccc1c23	89.2%
CCN(CC)CCNC(=O)c1c(C)[nH]c(/C=C2\C(=O)Nc3ccc(Cl)cc32)c1C	90.7%
Cc1cn(-c2cc(NC(=O)c3ccc(C)c(Nc4nccc(-c5cccnc5)n4)c3)cc(C(F)(F)F)c2)cn1	101%
Ic1cccc(CSc2nnc(-c3ccncc3)o2)c1	93.1%
CN(C)C[C@H]1CCn2c(c(C3=C(c4cn(C)c5ccccc45)C(=O)NC3=O)c3ccccc32)C1	105%
CCN(CC)CCNC(=O)c1c(C)[nH]c(/C=C2\C(=O)Nc3ccc(F)cc32)c1C	97.3%
COc1cc2c(cc1OC)-c1[nH]nc(Nc3cccc(F)c3)c1C2	89.9%
CN([C@@H](Cc1ccc(OS(=O)(=O)c2cccc3cnccc23)cc1)C(=O)N1CCN(c2ccccc2)CC1)S(=O)(=O)c1cccc2cnccc12	92.1%
Cc1cc2ncc(-c3ccccc3)nc2cc1C	101%
c1ccc(-c2cnc(Nc3ccc(OCCN4CCCC4)cc3)s2)cc1	89.1%
O=c1cc(-c2cccc3c2Sc2ccccc2S3)oc(N2CCOCC2)c1	90.7%
COc1cc2ncnc(Nc3ccc(O)c(Br)c3)c2cc1OC	86.4%
N#Cc1c(NC(=O)c2cccc3ccccc23)sc2c1CCCC2	87.2%
c1ccc(-c2[nH]ncc2-c2ccnc3ccccc23)nc1	92.6%

Series 2 — read-out: enzyme activity; mode: inhibitor; concentration: 10 µM
Target: Calcium/calmodulin-dependent protein kinase type II subunit alpha (CAMK2A, Homo sapiens, UniProt Q9UQM7)
Chain of UniProt Q9UQM7 (whole entry, looked up): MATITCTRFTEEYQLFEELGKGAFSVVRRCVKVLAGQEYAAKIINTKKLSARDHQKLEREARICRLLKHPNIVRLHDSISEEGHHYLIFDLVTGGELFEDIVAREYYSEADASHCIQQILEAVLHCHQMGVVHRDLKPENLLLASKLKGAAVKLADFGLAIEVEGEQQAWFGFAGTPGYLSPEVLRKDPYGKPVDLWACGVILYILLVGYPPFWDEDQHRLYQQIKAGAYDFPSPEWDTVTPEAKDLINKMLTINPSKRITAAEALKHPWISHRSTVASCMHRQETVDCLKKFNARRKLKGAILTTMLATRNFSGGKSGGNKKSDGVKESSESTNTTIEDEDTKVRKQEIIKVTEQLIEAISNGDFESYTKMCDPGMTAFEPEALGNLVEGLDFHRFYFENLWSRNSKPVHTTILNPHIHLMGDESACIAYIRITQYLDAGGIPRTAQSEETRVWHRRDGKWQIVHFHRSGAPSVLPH
SMILES	inhibition
C[C@@H]1CC[C@@]2(OC1)O[C@H]1C[C@H]3[C@@H]4CC[C@H]5C[C@@H](O)[C@H](O)C[C@]5(C)[C@H]4CC[C@]3(C)[C@H]1[C@@H]2C	-12%
N[C@@H](CS(=O)(=O)O)C(=O)O	-66%
C[C@H]1O[C@@H](O[C@H]2CC[C@@]3(C)[C@@H](CC[C@]4(C)[C@@H]3C=CC3=C5CC(C)(C)CC[C@]5(CO)[C@@H](O)C[C@]34C)[C@]2(C)CO)[C@H](O[C@@H]2O[C@H](CO)[C@@H](O)[C@H](O)[C@H]2O)[C@@H](O[C@@H]2O[C@H](CO)[C@@H](O)[C@H](O)[C@H]2O)[C@H]1O	8%
CCN1CCN(Cc2ccc(Nc3ncc(F)c(-c4cc(F)c5nc(C)n(C(C)C)c5c4)n3)nc2)CC1	69%
NC(=O)Cc1cccc(C(=O)c2ccccc2)c1N	-4%
CC1(C)O[C@H]1COc1c2ccoc2cc2oc(=O)ccc12	14%
CC(C)=CCC[C@@H](C)[C@H]1CC[C@H]2[C@@H]3CC=C4C[C@@H](O)CC[C@]4(C)[C@H]3CC[C@]12C	-7%
CSSSC	-22%
Cc1c(C)c2c(c(C)c1O)CC[C@@](C)(CCC[C@H](C)CCC[C@H](C)CCCC(C)C)O2 (relative stereo)	0.41%
O=S(=O)(O)c1cc(O)ccc1O	0.03% and 0%
COc1cc(-c2oc3cc(O)cc(O)c3c(=O)c2O[C@@H]2O[C@H](CO[C@@H]3O[C@@H](C)[C@H](O)[C@@H](O)[C@H]3O)[C@@H](O)[C@H](O)[C@H]2O[C@@H]2O[C@@H](C)[C@H](O)[C@@H](O)[C@H]2O)ccc1O	2%
C=CCc1ccc(O)c(OC)c1	5%
CCCc1cc(C(N)=S)ccn1	1%

Series 3 — concentration: 1 µM
SMILES: COc1ccc2[nH]c3c4[nH]c5ccc(OC)cc5c4c4c(c3c2c1)C(=O)NC4=O
target	technique	refers to	setting	baseline	remaining binding
Tyrosine-protein kinase ABL1 (ABL1, Homo sapiens, UniProt P00519, Q252H)	competitive binding panel	–	–	vehicle	28%
Calcium/calmodulin-dependent protein kinase type II subunit beta (CAMK2B, Homo sapiens, UniProt Q13554)	competitive binding panel	–	–	vehicle	100%
Mitogen-activated protein kinase kinase kinase 1 (MAP3K1, Homo sapiens, UniProt Q13233)	competitive binding panel	–	–	vehicle	71%
Mitogen-activated protein kinase 15 (MAPK15, Homo sapiens, UniProt Q8TD08)	competitive binding panel	ERK8	–	vehicle	58%
Serine/threonine-protein kinase D3 (PRKD3, Homo sapiens, UniProt O94806)	competitive binding panel	–	–	vehicle	75%
Cyclin-dependent kinase 14 (CDK14, Homo sapiens, UniProt O94921)	competitive binding panel	PFTK1	–	vehicle	85%
Serine/threonine-protein kinase PAK 5 (PAK5, Homo sapiens, UniProt Q9P286)	competitive binding panel	PAK7	–	vehicle	91%
Serine/threonine-protein kinase 10 (STK10, Homo sapiens, UniProt O94804)	competitive binding	–	LOK	–	88%
Homeodomain-interacting protein kinase 3 (HIPK3, Homo sapiens, UniProt Q9H422)	competitive binding panel	–	–	vehicle	44%
LIM domain kinase 1 (LIMK1, Homo sapiens, UniProt P53667)	competitive binding panel	–	–	vehicle	91%

Series 4 — SMILES: O=c1nc(-c2ccccn2)sc2ccccc12; technique: competition with immobilised ligand; concentration: 1 µM
target	read-out	remaining binding [%]
Phosphatidylinositol 4,5-bisphosphate 3-kinase catalytic subunit alpha isoform (PIK3CA, Homo sapiens, UniProt P42336)	cell-free assay	100
5'-AMP-activated protein kinase catalytic subunit alpha-2 (PRKAA2, Homo sapiens, UniProt P54646)	cell-free assay	100
Receptor-type tyrosine-protein kinase FLT3 (FLT3, Homo sapiens, UniProt P36888, D835V/ITD)	binding	81
Serine/threonine-protein kinase Sgk1 (SGK1, Homo sapiens, UniProt O00141)	binding	99
eIF-2-alpha kinase GCN2, C-terminal kinase domain (EIF2AK4, Homo sapiens, UniProt Q9P2K8, S808G)	binding	47
Beta-adrenergic receptor kinase 1 (GRK2, Homo sapiens, UniProt P25098)	binding	65
Serine/threonine-protein kinase PLK1 (PLK1, Homo sapiens, UniProt P53350)	binding	100
Receptor-interacting serine/threonine-protein kinase 2 (RIPK2, Homo sapiens, UniProt O43353)	binding	82
Serine/threonine-protein kinase SIK2 (SIK2, Homo sapiens, UniProt Q9H0K1)	binding	86
Serine/threonine-protein kinase TAO2 (TAOK2, Homo sapiens, UniProt Q9UL54)	binding	73
Phosphatidylinositol 3-kinase C2 domain-containing subunit gamma (PIK3C2G, Homo sapiens, UniProt O75747)	binding	100
Protein kinase C eta type (PRKCH, Homo sapiens, UniProt P24723)	cell-free assay	98
Tyrosine-protein kinase CSK (CSK, Homo sapiens, UniProt P41240)	cell-free assay	100
Tyrosine-protein kinase JAK2, JH1 (JAK2, Homo sapiens, UniProt O60674)	binding	100
Mitogen-activated protein kinase kinase kinase 3 (MAP3K3, Homo sapiens, UniProt Q99759)	binding	77
Tyrosine-protein kinase ABL1, non-phosphorylated (ABL1, Homo sapiens, UniProt P00519, F317L)	binding	100
Serine/threonine-protein kinase D3 (PRKD3, Homo sapiens, UniProt O94806)	binding	81
Receptor-interacting serine/threonine-protein kinase 1 (RIPK1, Homo sapiens, UniProt Q13546)	binding	83
Phosphatidylinositol 4,5-bisphosphate 3-kinase catalytic subunit alpha isoform (PIK3CA, Homo sapiens, UniProt P42336, C420R)	cell-free assay	94
Phosphorylase b kinase gamma catalytic chain, skeletal muscle/heart isoform (PHKG1, Homo sapiens, UniProt Q16816)	cell-free assay	84
Death-associated protein kinase 2 (DAPK2, Homo sapiens, UniProt Q9UIK4)	binding	86
Mast/stem cell growth factor receptor Kit (KIT, Homo sapiens, UniProt P10721, V559D)	binding	95
High affinity nerve growth factor receptor (NTRK1, Homo sapiens, UniProt P04629)	cell-free assay	100
Serine/threonine-protein kinase 33 (STK33, Homo sapiens, UniProt Q9BYT3)	binding	87
Proto-oncogene tyrosine-protein kinase receptor Ret (RET, Homo sapiens, UniProt P07949, V804L)	binding	70
